Results collected from several papers.
Compare with care: the assays were run in different laboratories. Numbers after ± are the reported error.
UniProt P01024, sequence (whole entry, unmodified, looked up): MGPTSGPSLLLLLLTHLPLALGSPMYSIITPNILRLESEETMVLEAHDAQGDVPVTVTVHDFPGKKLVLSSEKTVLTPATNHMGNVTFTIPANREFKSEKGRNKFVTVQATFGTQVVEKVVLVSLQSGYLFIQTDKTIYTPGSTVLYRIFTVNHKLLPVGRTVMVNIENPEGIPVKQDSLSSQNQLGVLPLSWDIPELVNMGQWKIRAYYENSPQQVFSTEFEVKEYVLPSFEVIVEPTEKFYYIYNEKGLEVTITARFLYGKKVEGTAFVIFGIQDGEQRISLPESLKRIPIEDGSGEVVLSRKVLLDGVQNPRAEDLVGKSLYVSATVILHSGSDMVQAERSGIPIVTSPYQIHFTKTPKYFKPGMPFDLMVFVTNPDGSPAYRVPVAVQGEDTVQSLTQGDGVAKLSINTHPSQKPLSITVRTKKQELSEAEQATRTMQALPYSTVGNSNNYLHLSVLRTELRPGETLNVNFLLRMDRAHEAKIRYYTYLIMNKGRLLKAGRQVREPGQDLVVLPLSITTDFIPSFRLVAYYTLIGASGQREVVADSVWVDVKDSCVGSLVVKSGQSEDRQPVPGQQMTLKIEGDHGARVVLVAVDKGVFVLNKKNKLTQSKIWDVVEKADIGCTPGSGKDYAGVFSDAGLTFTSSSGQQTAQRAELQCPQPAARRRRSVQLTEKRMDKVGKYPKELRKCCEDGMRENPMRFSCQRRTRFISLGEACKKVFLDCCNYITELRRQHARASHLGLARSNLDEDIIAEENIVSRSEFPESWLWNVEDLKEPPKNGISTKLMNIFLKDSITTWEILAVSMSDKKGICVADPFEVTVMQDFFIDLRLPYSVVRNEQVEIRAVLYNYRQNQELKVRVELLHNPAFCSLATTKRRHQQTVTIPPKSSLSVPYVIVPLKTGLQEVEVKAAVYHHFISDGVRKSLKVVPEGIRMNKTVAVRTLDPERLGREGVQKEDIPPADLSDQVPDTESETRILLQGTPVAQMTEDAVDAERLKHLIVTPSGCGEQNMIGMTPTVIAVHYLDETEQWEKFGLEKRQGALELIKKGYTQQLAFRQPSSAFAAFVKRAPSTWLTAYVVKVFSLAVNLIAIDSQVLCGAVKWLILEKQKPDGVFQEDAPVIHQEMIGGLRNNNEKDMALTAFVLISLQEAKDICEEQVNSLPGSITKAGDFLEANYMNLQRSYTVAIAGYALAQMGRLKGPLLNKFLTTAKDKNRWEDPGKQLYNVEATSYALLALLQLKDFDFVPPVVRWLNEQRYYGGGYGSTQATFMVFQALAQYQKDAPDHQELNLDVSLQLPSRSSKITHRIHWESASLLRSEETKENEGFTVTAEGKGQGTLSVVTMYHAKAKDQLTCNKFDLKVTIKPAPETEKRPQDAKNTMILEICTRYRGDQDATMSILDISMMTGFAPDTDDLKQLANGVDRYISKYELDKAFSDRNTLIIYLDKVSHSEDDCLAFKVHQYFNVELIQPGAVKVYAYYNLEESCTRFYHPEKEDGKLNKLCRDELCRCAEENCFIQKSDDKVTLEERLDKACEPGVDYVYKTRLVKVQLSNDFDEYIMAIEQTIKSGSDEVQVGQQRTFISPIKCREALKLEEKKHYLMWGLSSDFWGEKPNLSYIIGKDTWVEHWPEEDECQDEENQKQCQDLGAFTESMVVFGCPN
UniProt P78417, sequence (whole entry, looked up): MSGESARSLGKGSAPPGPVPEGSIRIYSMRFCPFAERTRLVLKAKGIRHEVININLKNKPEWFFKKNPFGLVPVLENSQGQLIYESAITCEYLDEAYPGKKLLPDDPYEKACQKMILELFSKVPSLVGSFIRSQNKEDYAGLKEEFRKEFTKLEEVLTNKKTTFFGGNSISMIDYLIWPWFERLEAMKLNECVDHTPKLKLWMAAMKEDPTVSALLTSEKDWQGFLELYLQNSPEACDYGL
UniProt Q50940, sequence (whole entry, looked up): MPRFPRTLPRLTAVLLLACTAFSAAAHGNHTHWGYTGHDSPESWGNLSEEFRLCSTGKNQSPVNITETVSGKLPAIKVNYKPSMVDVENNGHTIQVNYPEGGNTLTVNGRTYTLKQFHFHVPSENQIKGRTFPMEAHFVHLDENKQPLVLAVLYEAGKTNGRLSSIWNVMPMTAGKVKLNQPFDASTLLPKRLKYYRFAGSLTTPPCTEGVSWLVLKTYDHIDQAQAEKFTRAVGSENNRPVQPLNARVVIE
UniProt Q05097, sequence (whole entry, looked up): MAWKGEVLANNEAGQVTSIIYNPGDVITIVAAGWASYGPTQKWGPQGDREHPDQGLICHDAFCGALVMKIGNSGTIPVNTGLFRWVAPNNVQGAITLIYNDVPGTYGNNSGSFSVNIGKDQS
UniProt Q04609, sequence (whole entry, looked up): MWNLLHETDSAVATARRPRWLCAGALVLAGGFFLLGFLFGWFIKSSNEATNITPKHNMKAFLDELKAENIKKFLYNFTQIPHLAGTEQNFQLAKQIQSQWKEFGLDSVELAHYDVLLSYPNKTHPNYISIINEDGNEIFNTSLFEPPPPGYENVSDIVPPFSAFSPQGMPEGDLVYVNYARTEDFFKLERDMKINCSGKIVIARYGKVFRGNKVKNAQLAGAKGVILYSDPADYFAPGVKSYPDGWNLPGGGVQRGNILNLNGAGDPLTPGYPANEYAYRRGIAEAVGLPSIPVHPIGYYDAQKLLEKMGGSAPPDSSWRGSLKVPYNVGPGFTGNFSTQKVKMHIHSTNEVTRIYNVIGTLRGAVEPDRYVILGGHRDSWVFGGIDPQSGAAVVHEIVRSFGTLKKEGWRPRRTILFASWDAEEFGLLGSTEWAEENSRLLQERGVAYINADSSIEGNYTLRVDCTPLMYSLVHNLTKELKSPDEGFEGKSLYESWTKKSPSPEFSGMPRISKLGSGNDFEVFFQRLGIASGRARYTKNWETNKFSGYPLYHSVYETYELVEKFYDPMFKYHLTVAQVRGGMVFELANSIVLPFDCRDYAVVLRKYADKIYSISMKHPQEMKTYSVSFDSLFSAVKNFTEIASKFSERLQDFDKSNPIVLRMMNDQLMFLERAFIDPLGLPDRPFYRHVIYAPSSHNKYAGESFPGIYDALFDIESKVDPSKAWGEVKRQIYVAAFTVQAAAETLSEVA
UniProt Q9NXA8, sequence (whole entry, unmodified, looked up): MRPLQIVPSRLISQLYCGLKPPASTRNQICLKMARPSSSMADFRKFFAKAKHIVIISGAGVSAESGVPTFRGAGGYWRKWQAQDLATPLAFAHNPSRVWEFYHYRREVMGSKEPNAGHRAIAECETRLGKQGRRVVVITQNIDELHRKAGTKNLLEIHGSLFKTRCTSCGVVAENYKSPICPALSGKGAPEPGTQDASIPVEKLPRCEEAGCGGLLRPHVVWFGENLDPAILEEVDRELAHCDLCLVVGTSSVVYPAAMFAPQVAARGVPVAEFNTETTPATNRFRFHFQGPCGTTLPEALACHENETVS
UniProt P83916, sequence (whole entry, looked up): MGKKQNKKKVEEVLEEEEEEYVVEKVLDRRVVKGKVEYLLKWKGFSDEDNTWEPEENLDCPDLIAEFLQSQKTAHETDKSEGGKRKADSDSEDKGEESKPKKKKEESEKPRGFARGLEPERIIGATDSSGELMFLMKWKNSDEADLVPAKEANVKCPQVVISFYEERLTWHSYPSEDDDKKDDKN
UniProt Q99942, sequence (whole entry, looked up): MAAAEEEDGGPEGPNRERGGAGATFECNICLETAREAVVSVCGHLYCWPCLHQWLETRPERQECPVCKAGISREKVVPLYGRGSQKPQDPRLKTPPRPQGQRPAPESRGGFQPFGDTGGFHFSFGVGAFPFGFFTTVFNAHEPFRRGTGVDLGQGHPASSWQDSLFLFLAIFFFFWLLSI
UniProt P53341, sequence (whole entry, looked up): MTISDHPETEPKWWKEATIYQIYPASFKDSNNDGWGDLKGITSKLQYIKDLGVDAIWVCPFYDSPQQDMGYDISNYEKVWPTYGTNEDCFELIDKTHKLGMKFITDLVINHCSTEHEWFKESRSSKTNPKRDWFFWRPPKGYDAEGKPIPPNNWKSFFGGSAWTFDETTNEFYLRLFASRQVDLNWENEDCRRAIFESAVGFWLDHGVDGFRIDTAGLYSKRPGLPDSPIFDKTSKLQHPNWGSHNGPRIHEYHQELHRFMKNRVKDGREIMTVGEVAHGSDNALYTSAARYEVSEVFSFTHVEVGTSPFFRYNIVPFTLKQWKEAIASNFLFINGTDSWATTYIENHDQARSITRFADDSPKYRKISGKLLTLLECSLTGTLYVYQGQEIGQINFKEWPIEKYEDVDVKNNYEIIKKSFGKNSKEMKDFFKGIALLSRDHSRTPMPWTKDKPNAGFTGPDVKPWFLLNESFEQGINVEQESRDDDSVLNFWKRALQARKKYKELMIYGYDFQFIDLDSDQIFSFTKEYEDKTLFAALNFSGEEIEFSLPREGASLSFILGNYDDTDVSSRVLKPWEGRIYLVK

Compound | target | assay | system | setting | scale | endpoint | result
OC[C@H]1O[C@@H](Oc2ccc(-c3cn([C@@H]4O[C@H](CO)[C@@H](n5cc(CCCCc6cn([C@H]7[C@H](O)[C@@H](O)[C@H](n8cc(-c9ccc(O[C@@H]%10O[C@H](CO)[C@H](O)[C@H](O)[C@H]%10O)cc9)nn8)O[C@@H]7CO)nn6)nn5)[C@H](O)[C@H]4O)nn3)cc2)[C@H](O)[C@@H](O)[C@H]1O | lecA (Pseudomonas aeruginosa, UniProt Q05097) | isothermal titration calorimetry | – | concentration not given, 25 °C | – | binding stoichiometry | 0.43 ± 0.03
CCN(CCCC[C@H](NC(=O)[C@H](Cc1ccc(OC)c(OC)c1)NC(=O)[C@H](C)NC(=O)[C@H](CC1CCCCC1)NC(=O)c1ccc(Br)c(N)c1)C(=O)N[C@@H](CO)C(=O)OC)C(C)C | Chromobox protein homolog 1 (Homo sapiens, UniProt P83916) | binding, item: CBX1 | HEK-293T cell lysate | concentration not given | – | competition of probe pulldown | inhibited
CC(=O)Nc1ncc(S(N)(=O)=O)s1 | cah (Neisseria gonorrhoeae, UniProt Q50940) | CO2 hydration | – | – | baseline: compound over acetazolamide | Ki ratio | 8.5 fold
O=C1c2ccc(O)cc2OC(Oc2ccc(-c3coc4cc(O)ccc4c3=O)cc2)C1(O)c1ccc(O)cc1 (centres unmarked) | laccase (Trametes versicolor) | substrate | – | product formation | – | Km | 168 ± 10.6 µM
CCOc1ccc(C[C@@H]2NC(=O)[C@H](C(C)C)NC(=O)[C@@H](NC(=O)[C@@H](NC(C)=O)[C@@H](C)CC)CSSC[C@@H](C(=O)N[C@H](C(N)=O)[C@@H](C)O)NC(=O)[C@H](CCCNC(=N)N)NC(=O)[C@H](Cc3c[nH]cn3)NC(=O)[C@H](C)NC(=O)CNC(=O)[C@H](Cc3c[nH]c4ccccc34)NC(=O)[C@H](CC(=O)O)NC(=O)[C@H](CCC(N)=O)NC2=O)cc1 | Complement C3 (Homo sapiens, UniProt P01024) | ITC | – | 25 °C | more negative = stronger binding | ΔG | -9.5 kcal/mol
COC(=O)C1=Cc2ccccc2S1(=O)=O | E3 ubiquitin-protein ligase RNF5, RING domain (Homo sapiens, UniProt Q99942) | inhibitor | – | 0, 5, 10 µM, 30 min, 30 °C, RNF5 N-terminal domain | – | autoubiquitination | inhibited
C=C1C(=O)O[C@@H]2[C@H]3C(CO)=CC(=O)C3=C(C)C[C@H](O)[C@@H]12 | MAL12 (Saccharomyces cerevisiae S288c, UniProt P53341) | fluorescence quenching | – | 310 K | – | quenching rate constant Kq | 3.89e+11 M⁻¹ s⁻¹
CC[C@H](C)[C@H](NC(C)=O)C(=O)N[C@H]1CSSC[C@@H](C(=O)N[C@@H](CC(C)C)C(N)=O)NC(=O)[C@H](CCCNC(=N)N)NC(=O)[C@H](Cc2c[nH]cn2)NC(=O)[C@H](C)NC(=O)CN(C)C(=O)[C@H](Cc2c[nH]c3ccccc23)NC(=O)[C@H](CC(=O)O)NC(=O)[C@H](CCC(N)=O)NC(=O)[C@H](Cc2cn(C)c3ccccc23)NC(=O)[C@H](C(C)C)NC1=O | Complement C3, C3b fragment (Homo sapiens, UniProt P01024) | SPR | – | 25 °C | baseline: [Trp(Me)4]-Ac-compstatin | relative dissociation rate constant | 1.9
O=C([O-])CN1CCN(CC(=O)[O-])CCN(C(CCC(=O)NCCCCCN(CCCC[C@H](NC(=O)N[C@@H](CCC(=O)O)C(=O)O)C(=O)O)C(=O)c2ccc(I)cc2)C(=O)O)CCN(CC(=O)[O-])CC1.[68Ga+3] (some centres unmarked) | FOLH1 (Homo sapiens, UniProt Q04609) | PET/CT | human, liver metastasis | – | baseline: normal liver | tumour-to-background ratio | 2.2
O=C(CCl)N(CCNC(=O)C(F)(F)F)c1ccc([N+](=O)[O-])cc1 | GSTO1 (Homo sapiens, UniProt P78417) | LC-MS/MS, item: active site Cys32 peptide | – | 10 µM, 30 min, GSTO1 50 µM | – | modified species fraction | 100%
CCOC(=O)C1=CN([C@@H]2O[C@H](CO)[C@@H](O)[C@H]2O)C=CC1 | SIRT5 (Homo sapiens, UniProt Q9NXA8, W222A) | desuccinylase activity, activator | – | concentration not given | – | activation | 1.5 fold
